{"data": "Experimental data of several laboratories", "note": "A part holds a random share of what one study measured. Changes are numbered by the printed parent chain."}
{"data": "Study 1", "target": "Prothrombin, mature alpha-thrombin (F2, Homo sapiens, UniProt P00734)", "technique": "aptamer microarray, sandwich", "form": "DNA with 2'F-ANA", "matrix": "in vitro", "concentration": "200 nM", "notes": "whole 15-mer aptamer, many near background", "with": "Cy3 exosite-II aptamer, 400 nM", "direction": "higher = stronger binding", "sequence": "GGTTGGTGTGGTTGG"}
{"Modification": "2'F-ANA at 2 3 4 8 11 13 14", "mean fluorescence intensity [a.u.]": 292}
{"Modification": "2'F-ANA at 1 4 8 9 11 12 14", "mean fluorescence intensity [a.u.]": 56}
{"Modification": "2'F-ANA at 1 2 3 4 6 8 10 14", "mean fluorescence intensity [a.u.]": 52.4}
{"Modification": "2'F-ANA at 1 3 5 6 8 10 11 12 13", "mean fluorescence intensity [a.u.]": 50.6}
{"Modification": "2'F-ANA at 2 3 4 6 8 9 10 11 13 14 15", "mean fluorescence intensity [a.u.]": 137}
{"Modification": "2'F-ANA at 7 8 10 13 15", "mean fluorescence intensity [a.u.]": 192}
{"Modification": "2'F-ANA at 3 4 5 6 7 8 9 10 12 15", "mean fluorescence intensity [a.u.]": 57.9}
{"data": "Study 2", "target": "CEBPE, bZIP domain (human)", "technique": "DHFR protein complementation", "matrix": "yeast", "notes": "single substitutions, most at no-binding floor", "relative to": "wild-type JUN-FOS pair", "direction": "higher = stronger binding", "parent": "JUN, bZIP domain (human); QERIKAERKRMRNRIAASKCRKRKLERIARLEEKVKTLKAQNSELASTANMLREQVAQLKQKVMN; partner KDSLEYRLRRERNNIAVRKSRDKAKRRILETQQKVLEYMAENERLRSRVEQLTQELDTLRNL"}
{"Change": "T37W", "binding fitness [natural log]": -1.02}
{"Change": "R30A", "binding fitness [natural log]": -0.805}
{"Change": "Q41T", "binding fitness [natural log]": -1.3}
{"Change": "V35G", "binding fitness [natural log]": -1.43}
{"data": "Study 3", "target": "ABI1, truncated, D143A, DHFR fusion (Arabidopsis thaliana)", "technique": "DHFR PCA, deep sequencing", "matrix": "yeast", "notes": "methotrexate growth selection, single substitutions", "with": "(+)-ABA 710 µM", "relative to": "wild-type fitted maximum", "direction": "higher = stronger binding", "parent": "PYL1, truncated, DHFR fusion (Arabidopsis thaliana); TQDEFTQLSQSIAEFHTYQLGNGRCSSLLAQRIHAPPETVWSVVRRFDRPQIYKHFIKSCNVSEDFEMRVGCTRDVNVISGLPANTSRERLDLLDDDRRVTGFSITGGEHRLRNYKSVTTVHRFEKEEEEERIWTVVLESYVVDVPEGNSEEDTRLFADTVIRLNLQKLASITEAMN; partner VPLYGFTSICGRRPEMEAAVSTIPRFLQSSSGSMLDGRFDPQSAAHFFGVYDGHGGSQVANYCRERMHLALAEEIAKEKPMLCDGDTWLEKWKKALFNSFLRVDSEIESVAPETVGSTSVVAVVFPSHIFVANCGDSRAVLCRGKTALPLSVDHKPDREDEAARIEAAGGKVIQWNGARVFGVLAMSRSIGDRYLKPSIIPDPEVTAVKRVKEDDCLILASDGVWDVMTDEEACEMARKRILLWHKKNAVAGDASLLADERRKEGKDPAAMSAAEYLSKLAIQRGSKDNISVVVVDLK"}
{"Change": "I12Y", "relative binding score": "81.2%"}
{"Change": "V121M", "relative binding score": "74.7%"}
{"Change": "V43D", "relative binding score": "-2.92%"}
{"Change": "Y141V", "relative binding score": "-11.2%"}
{"data": "Other studies, line by line"}
{"Substance": "PhoQ, residues 284 288 289 292 302 303 AQGLTV", "target": "PhoP, residues 12 14 15 18 19 AWHSL (Escherichia coli, UniProt P23836)", "test": "Sort-seq, item: YFP reporter", "test system": "E. coli", "setting": "PhoQ-PhoP variant library, with: 10 µM Mg2+", "how to read": "relative to: high Mg2+ state, higher = stronger signaling", "quantity": "fold induction", "result": 1.4}
{"note": "A few entries again (study 1):"}
{"Modification": "2'F-ANA at 7 8 10 13 15", "mean fluorescence intensity [a.u.]": 192}
